Results collected from several papers.
Protocols differ between the studies behind these lines. Values joined by “and” are separate records of one study, mostly repeats; a detail may differ. ± marks the error that the study gave.
MMP2: 72 kDa type IV collagenase (MMP2, Homo sapiens, UniProt P08253)
Adhesin FmlH lectin domain: Adhesin FmlH, lectin domain (Escherichia coli, UniProt Q1RBS0)
Palmitoyl-protein thioesterase 1: Palmitoyl-protein thioesterase 1 (Homo sapiens, UniProt P50897)
SLC6A2: Sodium-dependent noradrenaline transporter (SLC6A2, Homo sapiens, UniProt P23975)
Luciferin 4-monooxygenase: Luciferin 4-monooxygenase (Photinus pyralis, UniProt P08659)
DRD1: D(1A) dopamine receptor (DRD1, Homo sapiens, UniProt P21728)
HTR1E: 5-hydroxytryptamine receptor 1E (HTR1E, Homo sapiens, UniProt P28566)

SMILES = CN(C(=O)n1cnc(-c2ccc[n+]([O-])c2)c1)C1CCCCC1; target = PTAFR (Homo sapiens, UniProt P25105); setting = 10 µM; inhibition = 0.21%
SMILES = COc1ccc(S(=O)(=O)N(CC(=O)NO)CC(C)C)cc1; target = MMP2; test = fluorometric; setting = 0.1 ng/mL; inhibition = 49%
SMILES = OC[C@H]1O[C@@H](Oc2cc3c(O)cc(O)cc3[o+]c2-c2ccc(O)c(O)c2)[C@H](O)[C@@H](O)[C@H]1O; target = Adhesin FmlH lectin domain; test = binding to desialylated mucin, ELISA competition; test system = UPEC UTI89; setting = 100 µM; inhibition = 28.8 ± 6.5%
SMILES = CO[C@H]1/C=C/O[C@@]2(C)Oc3c(C)c(O)c4c(O)c(c(/C=N/N5CCN(C)CC5)c(O)c4c3C2=O)NC(=O)/C(C)=C\C=C\[C@H](C)[C@H](O)[C@@H](C)[C@@H](O)[C@@H](C)[C@H](OC(C)=O)[C@@H]1C; target = Palmitoyl-protein thioesterase 1; test = Spectrum Collection screen; setting = concentration not given, added: substrate 20 µM; inhibition = 70.1%
SMILES = CNc1nc(C#Cc2ccc(Cl)s2)nc2c1ncn2[C@H]1[C@H](O)[C@H](O)[C@]2(C(=O)OC)C[C@H]12; target = SLC6A2; test = noradrenaline uptake; test system = HEK293; setting = 10 µM, 10 min, added: 20 nM [3H]noradrenaline; inhibition = 19 ± 21%
SMILES = COCCNCc1ccc(OCC(O)CN2CCCCCC2)c(OC)c1 (stereo not shown); target = Luciferin 4-monooxygenase; test = luciferase luminescence, inhibitor; test system = cell-free; setting = 50 µM, counter-screen; inhibition = 1.09%
SMILES = Cc1nn(-c2nc3c(F)cc(F)cc3s2)c(O)c1C(c1ccc(C(F)(F)F)cc1)c1c(C)nn(-c2nc3c(F)cc(F)cc3s2)c1O; target = CGAS (Homo sapiens, UniProt Q8N884); test = enzyme activity, inhibitor, pyrophosphatase-coupled; setting = 100 µM, 1.5 h, added: HT-DNA; inhibition = 95.8%
SMILES = CC[C@@H]1[C@H](F)C(=O)N[C@@H]1COc1nccc2cc(C(N)=O)c(OC)cc12; target = VRK2 (Homo sapiens, UniProt Q86Y07); test = ATP-site probe binding, ActivX profiling; test system = THP-1 cell lysate; setting = 0.2 mM, Lys2 site; inhibition = -28.4%
SMILES = c1cnc2c(c1)ccc1cccnc12; target = rat aminopeptidase III (NAP-2); test = enzyme activity; setting = 1 mM; inhibition = 90%
SMILES = Cc1cc(NS(=O)(=O)c2ccc(N=NN(C)O)cc2)no1; target = α-glucosidase, rat intestine; test = enzyme activity; setting = 180 µg/mL, added: 4-nitrophenyl α-D-glucopyranoside; inhibition = 42.5%
SMILES = O=c1cc(N2CCCCC2)cnn1CC1COc2ccccc2O1 (stereo not shown); target = Luciferin 4-monooxygenase; test = luciferase luminescence, inhibitor; test system = cell-free; setting = 50 µM, counter-screen; inhibition = 96.8%
SMILES = NC/C(=C\F)COc1cccc(Cn2c(=S)[nH]c(=O)c3[nH]cnc32)c1; target = rat NMDA receptor; test = radioligand binding; setting = 10 µM, agonist site; inhibition = < 50%
SMILES = CN(C)[C@@H]1C(O)=C(C(N)=O)C(=O)[C@@]2(O)C(O)=C3C(=O)c4c(O)cccc4[C@@](C)(O)[C@H]3C[C@@H]12; target = Palmitoyl-protein thioesterase 1; test = Spectrum Collection screen; setting = concentration not given, added: substrate 20 µM; inhibition = 61.7%
SMILES = O=C(c1ccc(F)cc1)N(Cc1ccccc1)C1CCCCC1; target = SLC6A2; setting = 10 µM; inhibition = 24%
SMILES = COc1cccc(-c2cc(=O)c3ccccc3o2)c1N; target = Luciferin 4-monooxygenase; test = luciferase luminescence, inhibitor; test system = cell-free; setting = 50 µM, counter-screen; inhibition = 75.6%
SMILES = Cc1ccnc(OC[C@H]2CN(CC(=O)N3CCc4ccccc43)CCO2)c1; target = DRD1; test = radioligand binding; setting = concentration not given, added: [3H]SCH23390; inhibition = 63.7%
SMILES = COc1ccc(NC(=O)N2CCc3c(C(=O)NC4CCN(C)CC4)cccc32)cc1; target = Luciferin 4-monooxygenase; test = luciferase luminescence, inhibitor; test system = cell-free; setting = 50 µM, counter-screen; inhibition = 45.3%
SMILES = Cc1ncccc1OC[C@@H]1CN(CCN2CCc3ccccc32)CCO1; target = DRD1; test = radioligand binding; setting = concentration not given, added: [3H]SCH23390; inhibition = 41.3%
SMILES = COc1ccc(F)cc1C(=O)NCc1ccc(-c2nn([C@@H](C)C(F)(F)F)c(N)c2C(N)=O)cc1; target = STE20-related kinase adapter protein beta (Homo sapiens, UniProt Q9C0K7); test = target engagement, competitive chemoproteomics; test system = human PBMCs; setting = 0.01 µM; inhibition = 10.8%
SMILES = O=C1c2ccccc2CCN1CCCCN1CCN(c2cccc(Cl)c2Cl)CC1; target = DRD1; test = radioligand binding; setting = concentration not given, added: [3H]SCH23390; inhibition = 99.8%
SMILES = CCNNC(=O)c1ccc(CN(CC(=O)NCc2ccccc2)C(=O)c2ccc(N(C)C)cc2)cc1; target = MMP2; test = enzyme activity; setting = 10 µM; inhibition = no inhibition
SMILES = CCN(CC)CCNc1ccc(CO)c2sc3ccccc3c(=O)c12; target = Palmitoyl-protein thioesterase 1; test = Spectrum Collection screen; setting = concentration not given, added: substrate 20 µM; inhibition = 80.6%
SMILES = CCCCCC/C=C1\C=C(C(F)(F)F)c2cc3c(cc21)OCO3; target = P4HB (Homo sapiens, UniProt P07237); test = insulin reduction, inhibitor; setting = concentration not given, 37 °C, low micromolar preincubation; inhibition = inhibited
SMILES = O=C(Nc1cccc2c(=O)cc(-c3nnn[nH]3)oc12)c1ccc(OCCCCc2ccccc2)cc1; target = Volume-regulated anion channel subunit LRRC8C, part LRRC8A IL1 chimera (LRRC8C, Homo sapiens, UniProt Q8TDW0, E6A); test = ion current, inhibitor, whole-cell patch clamp; test system = HCT LRRC8-/- cells; setting = 10 µM, -100 mV; inhibition = 93.9% and 92% and 87.5% and 94.5%
SMILES = COc1cccc(OC[C@H]2CN(CCN3CCc4ccccc43)CCO2)c1; target = HTR1E; test = radioligand binding; setting = concentration not given, added: [3H]5-HT; inhibition = -15.1%
SMILES = Cn1cnc(Br)c1C1=CN(c2ncnc3[nH]cnc23)CCS1; target = cGMP-dependent protein kinase 1, isoform beta (PRKG1, Homo sapiens, UniProt Q13976); test = enzyme activity; setting = 2 µM; inhibition = 97.9%
SMILES = Cc1ccc(C2=NC3(CCN(C)CC3)NC(c3ccccc3O)C2)cc1 (stereo not shown); target = Luciferin 4-monooxygenase; test = luciferase luminescence, inhibitor; test system = cell-free; setting = 50 µM, counter-screen; inhibition = 8.42%
SMILES = Cc1cccc(N(O)N=Nc2ccc(S(=O)(=O)Nc3nccs3)cc2)c1; target = α-glucosidase, rat intestine; test = enzyme activity; setting = 20 µg/mL, added: 4-nitrophenyl α-D-glucopyranoside; inhibition = 5 ± 0.041%
SMILES = CC(=O)N[C@H]1C(O)O[C@H](CO)[C@H](O)[C@@H]1O (mixture of isomers); target = Adhesin FmlH lectin domain; test = binding to desialylated mucin, ELISA competition; test system = UPEC UTI89; setting = 100 µM; inhibition = 28.5 ± 5.2%
SMILES = Cc1noc(NS(=O)(=O)c2ccc(N=NN(C)O)cc2)c1C; target = α-glucosidase, rat intestine; test = enzyme activity; setting = 20 µg/mL, added: 4-nitrophenyl α-D-glucopyranoside; inhibition = 3.25 ± 0.16%
SMILES = CC(C)c1noc2ncc(C(=O)c3ccccc3O)cc12; target = ATP-sensitive inward rectifier potassium channel 10 (Homo sapiens, UniProt P78508); test = ion current, inhibitor, whole-cell patch clamp; setting = 10 µM; inhibition = 6.64% and 3.35% and 3.37% and 8.03% and 2.19%
SMILES = O=C(NO)c1ccc(CN2CCCCc3ccccc32)c(F)c1; target = HTR1E; test = radioligand binding, PDSP radioligand binding; setting = 10 µM; inhibition = -5.05%
SMILES = CCN(O)N=Nc1ccc(S(=O)(=O)Nc2cc(C)on2)cc1; target = α-glucosidase, rat intestine; test = enzyme activity; setting = 300 µg/mL, added: 4-nitrophenyl α-D-glucopyranoside; inhibition = 70 ± 0.01%
SMILES = C[C@H]1[C@H](OC(=O)CCC(=O)O)O[C@@H]2O[C@@]3(C)CC[C@H]4[C@H](C)CC[C@@H]1[C@@]24OO3; target = Non-structural polyprotein pORF1, RNA-dependent RNA polymerase (Hepatitis E virus genotype 1, UniProt P33424); test = polymerase activity, colorimetric; setting = 78 µM; inhibition = 40.5%
SMILES = CCCN(O)N=Nc1ccc(S(=O)(=O)Nc2nccs2)cc1; target = α-glucosidase, rat intestine; test = enzyme activity; setting = 180 µg/mL, added: 4-nitrophenyl α-D-glucopyranoside; inhibition = 40 ± 0.041%
SMILES = CN(Cc1ccc(F)cc1)Cc1nc(-c2ccc3c(c2)OCO3)no1; target = Luciferin 4-monooxygenase; test = luciferase luminescence, inhibitor; test system = cell-free; setting = 50 µM, counter-screen; inhibition = 42.7%
SMILES = Cc1ccc(N(O)N=Nc2ccc(S(=O)(=O)Nc3onc(C)c3C)cc2)cc1; target = α-glucosidase, rat intestine; test = enzyme activity; setting = 60 µg/mL, added: 4-nitrophenyl α-D-glucopyranoside; inhibition = 10 ± 0.54%
SMILES = Cn1cncc1[C@@](N)(c1ccc(Cl)cc1)c1ccc2c(c1)c(-c1cccc(Cl)c1)cc(=O)n2C; target = Protein farnesyltransferase (Homo sapiens, UniProt P49354+P49356); test = enzyme activity, inhibitor, scintillation proximity; test system = leukaemia patients, leukaemic blasts; setting = 300 mg/m^2, 10 days, median; scale = baseline: pretreatment; inhibition = 87%
SMILES = c1cncc(OC[C@H]2CN(CCN3CCc4ccccc43)CCO2)c1; target = DRD1; test = radioligand binding; setting = concentration not given, added: [3H]SCH23390; inhibition = 52.4%
SMILES = COc1cc(C(=O)NS(=O)(=O)c2ccccc2C)ccc1Cc1cn(C)c2ccc(NC(=O)OC3CCCC3)cc12; target = Volume-regulated anion channel subunit LRRC8C, part LRRC8A IL1 chimera (LRRC8C, Homo sapiens, UniProt Q8TDW0, Y126F); test = ion current, inhibitor, whole-cell patch clamp; test system = HCT LRRC8-/- cells; setting = 1 µM, +100 mV; inhibition = 64.7% and 38.1% and 50.9% and 63.4% and 38.2% and 40.7% and 64.2%
SMILES = Cc1c(C)c2c(c(C)c1O)CCC(C)(C(=O)O)O2 (stereo not shown); target = Palmitoyl-protein thioesterase 1; test = Spectrum Collection screen; setting = concentration not given, added: substrate 20 µM; inhibition = 62%
SMILES = Cc1cccc(N(O)N=Nc2ccc(S(=O)(=O)Nc3cc(C)on3)cc2)c1; target = α-glucosidase, rat intestine; test = enzyme activity; setting = 60 µg/mL, added: 4-nitrophenyl α-D-glucopyranoside; inhibition = 12.5 ± 2.3%
SMILES = CN1CCN(c2cc(-c3ccncc3)c(-c3ccc4ccccc4c3)nn2)CC1; target = CXCR2 (Homo sapiens, UniProt P25025); test = antagonist, FLIPR; setting = 10 µM; inhibition = -0.7%
SMILES = O=C1c2ccccc2CCCN1CCCCN1CCN(c2ccccn2)CC1; target = HTR1E; test = radioligand binding; setting = concentration not given, added: [3H]5-HT; inhibition = -8.6%
SMILES = CCN(O)N=Nc1ccc(S(=O)(=O)Nc2nccs2)cc1; target = α-glucosidase, rat intestine; test = enzyme activity; setting = 300 µg/mL, added: 4-nitrophenyl α-D-glucopyranoside; inhibition = 62.5 ± 1.38%
SMILES = Cc1ccc(OC[C@H]2CN(CCN3CCc4ccccc43)CCO2)cn1; target = HTR1E; test = radioligand binding; setting = concentration not given, added: [3H]5-HT; inhibition = -11.7%
SMILES = Cc1nc(N2CCCC(NCCc3ccccc3F)CC2)nc2ccc(F)cc12 (stereo not shown); target = Luciferin 4-monooxygenase; test = luciferase luminescence, inhibitor; test system = cell-free; setting = 50 µM, counter-screen; inhibition = 31.8%
SMILES = Clc1cncc(OC[C@@H]2CN(CCN3CCc4ccccc43)CCO2)c1; target = DRD1; test = radioligand binding; setting = concentration not given, added: [3H]SCH23390; inhibition = 93.6%
SMILES = [2H]c1cc(C)c(NC(=O)c2cnc(Nc3cc(N4CCCCC4)nc(C)n3)s2)c(Cl)c1; target = FRK (Homo sapiens, UniProt P42685); setting = 0.01 µM; inhibition = > 90%

For quick reference, copied from above:
SMILES = OC[C@H]1O[C@@H](Oc2cc3c(O)cc(O)cc3[o+]c2-c2ccc(O)c(O)c2)[C@H](O)[C@@H](O)[C@H]1O; target = Adhesin FmlH lectin domain; test = binding to desialylated mucin, ELISA competition; test system = UPEC UTI89; setting = 100 µM; inhibition = 28.8 ± 6.5%
SMILES = Cc1nc(N2CCCC(NCCc3ccccc3F)CC2)nc2ccc(F)cc12 (stereo not shown); target = Luciferin 4-monooxygenase; test = luciferase luminescence, inhibitor; test system = cell-free; setting = 50 µM, counter-screen; inhibition = 31.8%
SMILES = O=C(Nc1cccc2c(=O)cc(-c3nnn[nH]3)oc12)c1ccc(OCCCCc2ccccc2)cc1; target = Volume-regulated anion channel subunit LRRC8C, part LRRC8A IL1 chimera (LRRC8C, Homo sapiens, UniProt Q8TDW0, E6A); test = ion current, inhibitor, whole-cell patch clamp; test system = HCT LRRC8-/- cells; setting = 10 µM, -100 mV; inhibition = 93.9% and 92% and 87.5% and 94.5%
